{"data": "Measured values collected from several papers", "note": "Lines come from different studies, so protocols differ. Numbers after ± are the reported error."}
{"SMILES": "N#C[C@@H]1CCCN1C(=O)CNC(=O)c1ccnc2ccc(OCCCN3CCN(C(=O)CCc4ccc5c(c4)CN4CCN(Cc6cc(CCC(=O)O)ccc6O)CC(=O)[O][Al-]([18F])([O]C(=O)C4)[O]5)CC3)cc12 (stereo partly shown)", "test system": "BALB/c nude mice, U-87 MG xenograft, stomach", "setting": "1 h, blocking, with: DOTA-FAPI-04 40 nmol/mouse co-injected", "tissue uptake": "1.77 ± 0.88 %ID/g"}
{"SMILES": "CCCC[C@H](NC(=O)CCCCCCCNC(=O)CN1CCN(CC(=O)O)CCN(CC(=O)O)CC1)C(=O)N[C@H]1CC(=O)NCCCC[C@@H](C(N)=O)NC(=O)[C@H](Cc2c[nH]c3ccccc23)NC(=O)[C@H](CCCNC(=N)N)NC(=O)[C@@H](Cc2ccccc2)NC(=O)[C@H](Cc2c[nH]cn2)NC1=O [fluorine-18 labelled]", "test system": "C57 mice B16-F10 melanoma, liver", "setting": "intravenous, 0.37 MBq, 1 h", "tissue uptake": "3.31 ± 0.12 %ID/g"}
{"SMILES": "CCCC[C@H](NC(=O)CNC(=O)CNC(=O)[C@H](CCCCNC(=O)C(C)c1ccc(CC(C)C)cc1)NC(=O)CN1CCN(CC(=O)O)CCN(CC(=O)O)CCN(CC(=O)O)CC1)C(=O)N[C@H]1CC(=O)NCCCC[C@@H](C(N)=O)NC(=O)[C@H](Cc2c[nH]c3ccccc23)NC(=O)[C@H](CCCNC(=N)N)NC(=O)[C@@H](Cc2ccccc2)NC(=O)[C@H](Cc2c[nH]cn2)NC1=O (stereo partly shown) [lutetium-177 labelled]", "test system": "C57 mice, tumour-bearing, pancreas", "setting": "2 h", "tissue uptake": "0.34 ± 0.2 %ID/g"}
{"SMILES": "O=C(NCC1OC2CCC=CCCC2O1)c1ccc([18F])nc1 (stereo not shown)", "test system": "healthy female BALB/c nude mice, brain", "setting": "intravenous, 7.4 MBq per mouse, 120 min", "tissue uptake": "0.2 ± 0.01 %ID/g"}
{"SMILES": "CCCC[C@H](NC(=O)CNC(=O)CNC(=O)[C@H](CCCCNC(=O)[C@H](CC(=O)O)NC(=O)C(C)c1ccc(CC(C)C)cc1)NC(=O)CN1CCN(CC(=O)O)CCN(CC(=O)O)CCN(CC(=O)O)CC1)C(=O)N[C@H]1CC(=O)NCCCC[C@@H](C(N)=O)NC(=O)[C@H](Cc2c[nH]c3ccccc23)NC(=O)[C@H](CCCNC(=N)N)NC(=O)[C@@H](Cc2ccccc2)NC(=O)[C@H](Cc2c[nH]cn2)NC1=O (stereo partly shown) [lutetium-177 labelled]", "test system": "C57 mice, tumour-bearing, stomach", "setting": "intravenous, 0.037 MBq, 24 h", "tissue uptake": "0.24 ± 0.06 %ID/g"}
{"SMILES": "Cc1cc(C)n(CCN(CCN)CCCCCCNC(=O)[C@@H](N)Cc2c[nH]c3ccccc23)n1.[99Tc+].[C-]#[O+].[C-]#[O+].[C-]#[O+]", "test system": "BALB/c nude mice, A549 xenograft, tumor", "setting": "intravenous, 15 min", "tissue uptake": "1.6 ± 0.39 %IA/g"}
{"SMILES": "COc1ccc(Nc2nc(Nc3ccc(OCCOCC[18F])cc3)ncc2Br)cc1", "test system": "ICR mice, S180 tumour-bearing, bone", "setting": "intravenous, 370 kBq, 60 min", "tissue uptake": "4.08 ± 0.53 %ID/g"}
{"SMILES": "Cc1cc(C)n(CCN(CCN)CCCCCCNC(=O)[C@@H](N)Cc2c[nH]cn2)n1.[99Tc+].[C-]#[O+].[C-]#[O+].[C-]#[O+]", "test system": "BALB/c nude mice, MCF7 xenograft, stomach", "setting": "intravenous, 4 h", "tissue uptake": "0.26 ± 0.02 %IA/g"}
{"SMILES": "COc1ccc(Nc2nc(Nc3ccc(OCCOCCOCC[18F])cc3)ncc2Br)cc1", "test system": "ICR mice, S180 tumour-bearing, lung", "setting": "intravenous, 370 kBq, 5 min", "tissue uptake": "10.6 ± 0.61 %ID/g"}
{"SMILES": "CCCC[C@H](NC(=O)COCCOCCNC(=O)CN1CCN(CC(=O)O)CCN(CC(=O)O)CC1)C(=O)N[C@H]1CC(=O)NCCCC[C@@H](C(N)=O)NC(=O)[C@H](Cc2c[nH]c3ccccc23)NC(=O)[C@H](CCCNC(=N)N)NC(=O)[C@@H](Cc2ccccc2)NC(=O)[C@H](Cc2c[nH]cn2)NC1=O [fluorine-18 labelled]", "test system": "C57 mice B16-F10 melanoma, spleen", "setting": "intravenous, 0.37 MBq, 0.5 h", "tissue uptake": "0.53 ± 0.21 %ID/g"}
{"note": "Excerpt of the above:"}
{"SMILES": "CCCC[C@H](NC(=O)CCCCCCCNC(=O)CN1CCN(CC(=O)O)CCN(CC(=O)O)CC1)C(=O)N[C@H]1CC(=O)NCCCC[C@@H](C(N)=O)NC(=O)[C@H](Cc2c[nH]c3ccccc23)NC(=O)[C@H](CCCNC(=N)N)NC(=O)[C@@H](Cc2ccccc2)NC(=O)[C@H](Cc2c[nH]cn2)NC1=O [fluorine-18 labelled]", "test system": "C57 mice B16-F10 melanoma, liver", "setting": "intravenous, 0.37 MBq, 1 h", "tissue uptake": "3.31 ± 0.12 %ID/g"}
